Measurements pooled from the literature.
Compare with care: the assays were run in different laboratories.
Target: MAP/microtubule affinity-regulating kinase 4 (MARK4, Homo sapiens, UniProt Q96L34)

For `CCn1cc(C(=O)O)c(=O)c2c(N)c(F)c(NC3CCCCC3)cc21`, the inhibition was -4% (kinase activity; 0.1 µM, together with: ATP at Km).
The inhibition of `COc1ccc(O)cc1-c1c[nH]c2ncc(-c3cncc(C(=O)N(C)C)c3)cc12` is reported as 72.1% (binding, competition with immobilised ligand; 0.2 µM).
For `Cc1cnc2nc1Nc1cccc(c1)COC/C=C/COCc1cc(ccc1OCCN1CCOCC1)N2`, “percent of control” read 100% (concentration not given).
The remaining binding of `C=CC(=O)N1CCCC(n2c(=O)c3ncccc3n(Cc3ccc(Oc4ccccc4)cc3)c2=O)C1` (centres unmarked) is reported as 90% (cell-free assay, competition with immobilised ligand; 1 µM).
For `Cc1cccc(O[C@H]2CCC[C@@H](C(C)CNCc3ccncc3)C2)c1` (relative stereo), the inhibition was -1% (kinase activity, kinome panel screening; 1 µM).
`C=CC(=O)Nc1cc(-c2nn(C3CCN(CCNC(=O)[C@H](C)CCC45CC6CC(CC(C6)C4)C5)CC3)c3ncnc(N)c23)ccc1Oc1ccccc1` gave an inhibition of 15.6% (inhibitor, KiNativ profiling; biochemical; 2 µM).
The remaining binding of `C=CC(=O)N1CCc2ccc(-n3c(=O)ccc4cnc5ccc(-c6cnn(C)c6)cc5c43)cc21` is reported as 100% (KINOMEscan; 1 µM; baseline: DMSO control).
`Nc1ncc2c(n1)-c1c([nH]c3ccc(C4=CCOCC4)cc13)CCC2` has a remaining binding of 90% (binding, competition with immobilised ligand; 1 µM).
`Cc1ccc(-c2c(/C=C(\C#N)C(=O)NC(C)C)n(CCCO)c3ncnc(N)c23)cc1` gave a remaining binding of 82% (cell-free assay, competition with immobilised ligand; 1 µM).
For `CN1CC[C@@H](COc2cnc(C#N)cc2-c2ccn3nc(NC(=O)C4CC4)cc3c2)C1`, the inhibition was 8% (enzyme activity, inhibitor; 1 µM).
For `COc1c(Cl)cccc1Nc1c(-c2ccncc2C#C[C@@]2(C)CCCN2C(=O)/C=C/CN(C)C)[nH]c2c1C(=O)NCC2`, the remaining binding was 97% (binding, competition with immobilised ligand; 3 µM).
`NC(=O)C[C@H]1CCc2sc3ncnc(O[C@H]4CC[C@H](N5CCOCC5)CC4)c3c21` has an inhibition of 3% (enzyme activity, inhibitor; 10 µM).
`COc1cc(Nc2nccc(-c3cnn4nc(OC)ccc34)n2)cc(C(F)(F)F)c1` has a remaining binding of 89% (binding, competition with immobilised ligand; 1 µM).
The inhibition of `C=CC(=O)Nc1cccc(-c2cnc3[nH]cc(C(=O)NC(C)(C)C)c3n2)c1` is reported as 54% (kinase activity; 0.1 µM).
